Published values collected from several papers.
A part holds a random share of what one study measured. Changes are numbered by the printed parent chain.

Series 1
Target: Phosphate system positive regulatory protein PHO4, full length, GST-tagged (PHO4, Saccharomyces cerevisiae, UniProt P07270, residues 1-312)
Method: competition protein-binding microarray
Form: double-stranded DNA, one strand shown
Matrix: in vitro
Concentration: 2 µM
Setting: whole 60-bp probe, lowest competitor level
With: Cbf1 competitor, 0.05 µM
Direction: higher = stronger binding
Construct (chain): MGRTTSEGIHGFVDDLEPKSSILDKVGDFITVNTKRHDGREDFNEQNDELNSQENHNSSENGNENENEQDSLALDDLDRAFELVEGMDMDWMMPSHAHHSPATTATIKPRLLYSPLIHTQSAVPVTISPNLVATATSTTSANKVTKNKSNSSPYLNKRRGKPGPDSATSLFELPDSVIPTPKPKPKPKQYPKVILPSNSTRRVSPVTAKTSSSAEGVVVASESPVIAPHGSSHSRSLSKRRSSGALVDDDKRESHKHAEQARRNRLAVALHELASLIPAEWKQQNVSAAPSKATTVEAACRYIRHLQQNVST
The fluorescence intensity of `GTTACCCTCATAAAGCACGTGGCCGCTTATCGAGAAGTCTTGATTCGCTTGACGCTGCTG` is reported as 17900 a.u.
With `AGTCGAGCCGCCCGTCACGTGCGGAGCCGCCCTGCTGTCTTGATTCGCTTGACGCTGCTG` the fluorescence intensity was 18100 a.u.
The fluorescence intensity of `AGAAATGAGTGGAAGCGCGTGGAAGCCCGTCTAGCAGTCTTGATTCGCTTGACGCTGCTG` is reported as 8270 a.u.
The fluorescence intensity of `CAGTGGGATGATCTACTCGTGTGGAAGACATGTCGAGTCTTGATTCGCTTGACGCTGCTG` is reported as 6870 a.u.
The fluorescence intensity of `CCTTAATAGGCGAGTCACGTGGAATGGTAGAACCGAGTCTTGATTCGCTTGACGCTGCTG` is reported as 16800 a.u.
With `TTCTCGAAGAGTCGGCACGGGATCCTGAAAAAAGCAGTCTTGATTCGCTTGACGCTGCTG` the fluorescence intensity was 8930 a.u.
The fluorescence intensity of `GCGTATTTGCCCCAACATGTGGTAGCCAAAACTTCAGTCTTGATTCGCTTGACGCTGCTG` is reported as 8480 a.u.
`CCATGCCCGGGTACCCACGGCTCCTCGGAGGCCGGGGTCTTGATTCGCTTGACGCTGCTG` has a fluorescence intensity of 4260 a.u.
`TTCAGCCATCCAAGCCATGTGCTTTAAGTCGTCGCTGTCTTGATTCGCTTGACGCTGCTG` has a fluorescence intensity of 9720 a.u.
With `GCGTCGAAATCTAATTTTGTGACAGTGTAGTTCTTAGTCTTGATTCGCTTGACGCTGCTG` the fluorescence intensity was 3570 a.u.
The fluorescence intensity of `AGGCGCTCGCTCTCTTCCGTGGGTACCTGCTATATAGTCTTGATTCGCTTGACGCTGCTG` is reported as 4310 a.u.
The fluorescence intensity of `CTTCTGTAAATTTGGAGGGTGGGTGGACGCGCCCCGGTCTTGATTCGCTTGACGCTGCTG` is reported as 4260 a.u.
`CTTTCCCGATCTTTTCACGTGATCTTAGCACATTTGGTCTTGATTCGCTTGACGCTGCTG` has a fluorescence intensity of 11700 a.u.
For `GTCGTATTATCGAGTCACGTGCTTTATTCCATGGCGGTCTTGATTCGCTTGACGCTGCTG`, the fluorescence intensity was 15600 a.u.
For `AAATTACTAAGTTGGGAAGTGGGTGACGCCGTATGAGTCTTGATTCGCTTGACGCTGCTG`, the fluorescence intensity was 4320 a.u.
With `ACAGCCACTGGCGGCCGCGTGCTTCCTCCCCTCCCTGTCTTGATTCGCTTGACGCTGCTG` the fluorescence intensity was 9350 a.u.
The fluorescence intensity of `GTCGGCGGCGCAGCTCACGTGACCGCGCTCTGGGCCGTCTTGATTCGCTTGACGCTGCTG` is reported as 11900 a.u.
With `CTAACGAAGGTTTGAAAGGTGGGTGACAAGCCAAGTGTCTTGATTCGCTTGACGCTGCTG` the fluorescence intensity was 3900 a.u.
The fluorescence intensity of `CCAAAGCCGCCTGAACGCGTGTTTTTGCTGTTGTTTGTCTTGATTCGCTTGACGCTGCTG` is reported as 8950 a.u.
`TTATGAACTGCTACCCACGTGTAACCAATTTTTTTAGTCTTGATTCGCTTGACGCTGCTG` gave a fluorescence intensity of 18300 a.u.
`AAATTACTAAGTTGATACGTGGGTGACGCCGTATGAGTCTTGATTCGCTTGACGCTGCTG` has a fluorescence intensity of 6870 a.u.
With `TACGAAAAACAGAGAAACGTGTCGGTAGCATCCGATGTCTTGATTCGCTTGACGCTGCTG` the fluorescence intensity was 11900 a.u.

Series 2
Target: Ras GTPase-activating protein-binding protein 1, C-terminal RGG region (G3BP1, Homo sapiens, UniProt Q13283)
UniProt Q13283, sequence (whole entry, looked up): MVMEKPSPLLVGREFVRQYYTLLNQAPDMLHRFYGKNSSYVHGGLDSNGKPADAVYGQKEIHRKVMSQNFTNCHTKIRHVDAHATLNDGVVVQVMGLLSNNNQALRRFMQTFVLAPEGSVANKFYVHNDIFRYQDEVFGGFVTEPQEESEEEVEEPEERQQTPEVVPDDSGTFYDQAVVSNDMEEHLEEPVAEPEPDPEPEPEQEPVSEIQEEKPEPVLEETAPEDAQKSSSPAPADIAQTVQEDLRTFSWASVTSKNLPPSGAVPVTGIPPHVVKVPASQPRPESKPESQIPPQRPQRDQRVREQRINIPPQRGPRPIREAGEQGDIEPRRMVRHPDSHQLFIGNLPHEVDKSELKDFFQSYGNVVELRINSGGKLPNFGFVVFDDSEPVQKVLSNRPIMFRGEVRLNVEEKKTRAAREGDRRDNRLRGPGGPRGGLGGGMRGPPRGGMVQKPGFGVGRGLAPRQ
Method: RNA Bind-n-Seq
Form: RNA
Matrix: in vitro
Concentration: 1 µM
Setting: whole 134-nt RNA, ends assumed
With: 150 mM KCl
Reference: input library
Direction: higher = stronger binding
`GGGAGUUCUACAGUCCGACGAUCGCAGGAAGUAAAAACAAAUGGAAAUGCUUCGGAUAGUGGCAGGGGUGGGGGUUGCUAAGGAAAGGGUGGGAUGGGUGUGGGUAAAGAGUUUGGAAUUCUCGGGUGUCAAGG` gave a log2 enrichment of 1.14.
`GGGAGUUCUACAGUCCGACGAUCUCCUCAAGUCCUGUGCUACACAUCGUAUGUACCGAAUCGGAGGUGGAAAGGAAAGUAUUAUGUUACGCCGUUCGGAUCUGCACUUCCAGCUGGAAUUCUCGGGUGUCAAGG` gave a log2 enrichment of -1.24.
`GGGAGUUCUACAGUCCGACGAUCCAAGUCCUGUGCUACACAUCGUAUGUACCGAAUCGGGGUUUGGGUUUGGUUUGGGGAAAGUAUUAUGUUACGCCGUUCGGAUCUGCACUUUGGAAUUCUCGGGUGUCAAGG` has a log2 enrichment of -0.456.
For `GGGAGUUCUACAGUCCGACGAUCUGGCCCUGGUGGCAUGCGGGGAGGAAGAGGUGGCCGCAUGGAUCGUGGUGGUCCCGGUGGAAUGUUCAGAGGUGGCCGUGGUGGAGACAGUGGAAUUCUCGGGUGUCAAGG`, the log2 enrichment was 2.4.
For `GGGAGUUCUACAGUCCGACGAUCUGGCCCUGGUGGCAUGCGGGGAGGAAGAGGUGGCCUCAUGGAUCGUGGUGGUCCCGGUGGAAUGUUCGGAGGUGGCCGUGGUGGAGACAGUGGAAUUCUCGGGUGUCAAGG`, the log2 enrichment was 3.21.
For `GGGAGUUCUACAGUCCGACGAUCCCUCAAGUCCUGUGCUACACAUCGUAUGUACCGAAUCGGCCGGGCCGGCCGGAAAGUAUUAUGUUACGCCGUUCGGAUCUGCACUUCCAGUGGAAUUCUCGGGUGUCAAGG`, the log2 enrichment was -1.22.
With `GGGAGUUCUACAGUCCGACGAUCCACAGACAACACGCACCCACACAGACACAGAGGGAAGGGGUUGGGAUGGGGACAGGUUGCACAGCAGGGCGGGGUAGGACCCCAGCCCCUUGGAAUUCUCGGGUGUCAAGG` the log2 enrichment was -0.614.
For `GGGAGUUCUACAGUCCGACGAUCAAGUCCUGUGCUACACAUCGUAUGUACCGAAUCGGGAAAAGGAAAAGGGAAAAGGGGAAAGUAUUAUGUUACGCCGUUCGGAUCUGCACUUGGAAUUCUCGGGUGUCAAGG`, the log2 enrichment was -1.17.
The log2 enrichment of `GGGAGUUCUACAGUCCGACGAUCUAACUUUAGAGGAGGAUCUGAUGGAUAUGGCAGUGGACGUGGAUUUGGGCAUGGCUAUAAUGGGUAUGGAGGAGGACCUGGAGGUGGCAAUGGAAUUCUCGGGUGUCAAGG` is reported as -0.765.
The log2 enrichment of `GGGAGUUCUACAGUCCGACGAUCGUCCUGUGCUACACAUCGUAUGUACCGAAUCGGGGUGGGGAAAAAGGGGAAAAAGGGGAAAGUAUUAUGUUACGCCGUUCGGAUCUGCACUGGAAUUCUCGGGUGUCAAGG` is reported as 1.19.

Series 3
Target: CCNB2, cyclin fold, Cln2 fusion (human)
Method: yeast growth competition, sequencing
Matrix: yeast
Setting: weak parent motif
Reference: not given
Direction: higher = stronger binding
Parent: GMNC docking peptide (human); KNAKRNLSSEFAN; partner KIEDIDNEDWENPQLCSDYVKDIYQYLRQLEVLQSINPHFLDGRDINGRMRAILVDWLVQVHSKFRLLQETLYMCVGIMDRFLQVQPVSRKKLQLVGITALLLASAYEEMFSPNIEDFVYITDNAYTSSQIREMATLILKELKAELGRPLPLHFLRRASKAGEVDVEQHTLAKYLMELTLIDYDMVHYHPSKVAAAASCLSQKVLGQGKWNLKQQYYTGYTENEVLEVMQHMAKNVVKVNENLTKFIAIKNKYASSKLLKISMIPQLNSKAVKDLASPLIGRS
`N2V` — result for “normalised enrichment score”: 0.413.
Under “normalised enrichment score”, `A12V` is recorded as -0.0978.
Under “normalised enrichment score”, `S8H` is recorded as 0.379.
`F11W`: “normalised enrichment score” 0.386.
For `L7S`, “normalised enrichment score” read 0.123.
For `F11A`, “normalised enrichment score” read 0.802.
For `N2K`, “normalised enrichment score” read 0.827.
`A3R` — result for “normalised enrichment score”: 0.368.
For `F11G`, “normalised enrichment score” read 0.566.
For `K4M`, “normalised enrichment score” read -0.195.
`N2P`: “normalised enrichment score” 0.841.
`A3L`: “normalised enrichment score” 1.4.
For `N6A`, “normalised enrichment score” read 0.388.
`K4Y` — result for “normalised enrichment score”: 0.139.
For `R5E`, “normalised enrichment score” read 0.313.
`R5C`: “normalised enrichment score” 0.137.

Series 4
Target: CREBZF, bZIP domain (human)
Method: DHFR protein complementation
Matrix: yeast
Setting: single substitutions, most at no-binding floor
Reference: wild-type JUN-FOS pair
Direction: higher = stronger binding
Parent: JUN, bZIP domain (human); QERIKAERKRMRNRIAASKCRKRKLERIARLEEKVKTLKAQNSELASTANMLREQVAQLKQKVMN; partner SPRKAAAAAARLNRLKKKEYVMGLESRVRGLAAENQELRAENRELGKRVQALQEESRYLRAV
The binding fitness of `E32M` is reported as -1.53 natural log.
`K36R` gave a binding fitness of -1.43 natural log.
With `L38P` the binding fitness was -1.5 natural log.
With `I28L` the binding fitness was -1.39 natural log.
With `E54W` the binding fitness was -1.47 natural log.
`T48I` gave a binding fitness of -1.45 natural log.
`A29I` has a binding fitness of -1.22 natural log.
The binding fitness of `T37M` is reported as -1.46 natural log.
`E33A` has a binding fitness of -1.29 natural log.
The binding fitness of `L52E` is reported as -1.49 natural log.
`Q55L` gave a binding fitness of -1.45 natural log.
`L31C` gave a binding fitness of -1.44 natural log.
With `E44C` the binding fitness was -1.53 natural log.
For `K36G`, the binding fitness was -1.45 natural log.
With `V56T` the binding fitness was -1.51 natural log.
With `Q55F` the binding fitness was -1.47 natural log.
For `L38D`, the binding fitness was -1.53 natural log.
With `K39C` the binding fitness was -1.54 natural log.
For `L38G`, the binding fitness was -1.43 natural log.
`K36C` has a binding fitness of -1.37 natural log.

Series 5
Target: Histone acetyltransferase KAT6A, both winged helices, GST fusion (KAT6A, Homo sapiens, UniProt Q92794, residues 1-181)
Method: protein binding microarray
Form: double-stranded DNA, one strand shown
Matrix: in vitro
Concentration: not given
Setting: 8-mer, flanks averaged, mean of 2 arrays, mostly near background
Reference: not given
Direction: higher = stronger binding
Residues (chain): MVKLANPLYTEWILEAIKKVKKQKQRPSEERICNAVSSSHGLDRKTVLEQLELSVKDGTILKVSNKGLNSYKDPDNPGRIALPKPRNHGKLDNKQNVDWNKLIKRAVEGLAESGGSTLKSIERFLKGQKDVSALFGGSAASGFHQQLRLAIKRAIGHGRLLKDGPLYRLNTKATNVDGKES
`CGTAGGCC` has an E-score of 0.0323.
For `CGCCCCTC`, the E-score was 0.104.
With `AACCCGCA` the E-score was 0.134.
For `TCTAATCA`, the E-score was -0.0217.
For `ATCCGGGA`, the E-score was -0.0607.
With `CGTCCTTA` the E-score was 0.0914.
For `TCCCACGA`, the E-score was -0.166.
The E-score of `GCCGTGAC` is reported as 0.245.
`GATAGAAA` gave an E-score of -0.069.
The E-score of `CTAAAGTC` is reported as -0.138.
The E-score of `AAATCGTC` is reported as 0.0111.
`CCCCTGCG` has an E-score of 0.113.
With `GGAACGGA` the E-score was 0.196.
With `AACGTGGT` the E-score was -0.0946.
`CTGATACA` gave an E-score of -0.0527.
For `ATGATAAG`, the E-score was -0.151.
For `ACGGGTGC`, the E-score was 0.225.
For `CGCTTGTC`, the E-score was 0.129.
For `CTTCATCA`, the E-score was -0.0938.
With `CGCGGCTA` the E-score was 0.383.
